Assay results from different studies.
Each numbered part is a random draw from the data of one study; scales do not carry over between parts.

Block 1
Target: Histone acetyltransferase KAT6A, both winged helices, GST fusion (KAT6A, Homo sapiens, UniProt Q92794, residues 1-181)
Technique: protein binding microarray
Molecule type: double-stranded DNA, one strand shown
Medium: in vitro
Concentration: not given
Setting: 8-mer, flanks averaged, mean of 2 arrays, mostly near background
Relative to: not given
Direction: higher = stronger binding
Measurement: E-score
Target sequence (chain): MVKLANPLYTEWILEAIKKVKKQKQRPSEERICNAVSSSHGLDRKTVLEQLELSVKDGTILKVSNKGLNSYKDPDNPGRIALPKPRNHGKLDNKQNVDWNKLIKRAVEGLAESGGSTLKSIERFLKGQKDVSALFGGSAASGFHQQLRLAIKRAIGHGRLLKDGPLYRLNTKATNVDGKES
AGTTCTAT: -0.0991
AATGCTTA: -0.162
AACCCGGA: 0.106
CAAATGTC: -0.0584
GGATTGTA: -0.054
GCGCCGAC: 0.337
GCCAAGCA: -0.203
AGGATCAA: -0.084
CAGATCGG: 0.106
CCGTGTGA: 0.157
ACAAACCA: -0.333
CATGGTCA: 0.0199
CCTATCTA: -0.258
AATACTTC: -0.213
TAGGGCAA: -0.115
GGAGTATA: 0.0524

Block 2
Target: Interferon regulatory factor 7, full length, phosphomimetic (IRF7, Homo sapiens, UniProt Q92985, residues 1-503, S471D/S472D/S475D/S476D/S477D/S483D/S484D/S487D)
Sequence of UniProt Q92985 (whole entry, unmodified, looked up): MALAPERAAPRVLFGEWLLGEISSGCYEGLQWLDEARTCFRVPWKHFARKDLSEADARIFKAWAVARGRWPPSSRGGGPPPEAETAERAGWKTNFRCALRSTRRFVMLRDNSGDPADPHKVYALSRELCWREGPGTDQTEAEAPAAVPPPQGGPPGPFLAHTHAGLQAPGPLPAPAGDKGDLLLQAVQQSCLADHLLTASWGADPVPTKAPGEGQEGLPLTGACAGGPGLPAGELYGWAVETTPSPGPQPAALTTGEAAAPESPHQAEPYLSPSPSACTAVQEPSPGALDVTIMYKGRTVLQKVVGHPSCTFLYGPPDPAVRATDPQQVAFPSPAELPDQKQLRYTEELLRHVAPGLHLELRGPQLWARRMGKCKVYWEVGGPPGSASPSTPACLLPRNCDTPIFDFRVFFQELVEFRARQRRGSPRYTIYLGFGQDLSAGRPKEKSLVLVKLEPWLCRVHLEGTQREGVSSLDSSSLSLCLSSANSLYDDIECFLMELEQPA
Technique: protein-binding microarray
Molecule type: double-stranded DNA, one strand shown
Medium: in vitro
Concentration: 2200 nM top
Setting: 60-bp whole probe
Together with: salmon DNA 0.4 mg/ml
Relative to: random background probes
Direction: higher = stronger binding
Measurement: fitted relative affinity
Constant ends, left off below: GCCTAGCAC … GTCTTGATTCGCTTGACGCTGCTG
GACGGTATCCGACTGCTGACGTGCTAG: 0.0561 z-score
GACGATCTAAGTTTCGAGACGTGCTAG: 2.72 z-score
TCAAACTTGTGTTTGTCACTGTGCTAG: 0.481 z-score
TTACATTTCGGGACTGGATTAGTGCTA: 1.94 z-score
TTAGGTTTCCATTTCCTTTAGTGCTAG: 5.21 z-score
TTAGTTATCGGGTTTCGATTAGTGCTA: 3.83 z-score
TTCGGTATCGACTTTCGGTTAGTGCTA: 6.46 z-score
TTAGGACTGGGTCTCGGCTAGTGCTAG: -0.642 z-score
TTAGGTCTCGGTCTCGGTCAGTGCTAG: 0.323 z-score
TTAGAACTGGAGTATCGATTAGTGCTA: -0.551 z-score
TTAGGTCTGGGACTGGGTTAGTGCTAG: -0.834 z-score
TTAGGTCTCCTGCTCCTTTAGTGCTAG: 0.69 z-score
TTAGGTTCCGGTTTAGGTTAGTGCTAG: 3.83 z-score
TTAGGTTTCGACTATCGGTTTGTGCTA: 4.51 z-score
GACGGTTTGGGTATCGGGACGTGCTAG: 0.652 z-score
TCACTTCTAGACTTCTCACTGTGCTAG: 1.64 z-score
GACGGTTTCCTTTTCGTGACGTGCTAG: 5.48 z-score
TAAGGTTTCGGTTCCGGTTAGTGCTAG: 11.1 z-score
TACCTTTTCACTTTACACACGTGCTAG: 4.38 z-score
ATTTATTTACTCTCTACATGGGTGCTA: 1.02 z-score
TTAGGACTACTTCTCCTTTAGTGCTAG: 0.854 z-score
GACGGACTGCTTATCCTGAGGTGCTAG: -0.0851 z-score
TTAGGTTCGCTTTTCCTTTAGTGCTAG: 5.01 z-score

Block 3
Target: Protein C-ets-1 (ETS1, Homo sapiens, UniProt P14921, residues 1-441, full length assumed)
Technique: protein-binding microarray
Molecule type: double-stranded DNA, one strand shown
Medium: in vitro
Concentration: not given
Setting: k-mer, scored over probes, only values ≥0.25
Direction: higher = stronger binding
Measurement: E-score
Residues (chain): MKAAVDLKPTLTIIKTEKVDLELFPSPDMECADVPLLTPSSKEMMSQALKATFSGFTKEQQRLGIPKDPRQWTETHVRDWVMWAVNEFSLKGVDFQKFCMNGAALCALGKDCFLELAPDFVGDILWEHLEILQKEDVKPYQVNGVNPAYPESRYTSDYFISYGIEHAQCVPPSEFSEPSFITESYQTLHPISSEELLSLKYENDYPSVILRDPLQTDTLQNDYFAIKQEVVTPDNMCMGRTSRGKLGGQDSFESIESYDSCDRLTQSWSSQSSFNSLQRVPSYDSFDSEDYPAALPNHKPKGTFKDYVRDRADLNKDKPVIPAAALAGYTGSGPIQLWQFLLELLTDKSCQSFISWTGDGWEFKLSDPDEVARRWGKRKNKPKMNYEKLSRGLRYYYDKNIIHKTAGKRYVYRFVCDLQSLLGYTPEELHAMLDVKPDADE
CGCGTCCG: 0.413
CCTTCCAC: 0.259
ATCGCCGG: 0.326
CCCGGTCG: 0.304
GACGGAAC: 0.269
GGACCGGA: 0.474
ACGTCCGC: 0.434
AAGGAACT: 0.254
CCTTCCCG: 0.259
CCCGCTTC: 0.268
GAAGAGGA: 0.268
CGTGTTCC: 0.258
AGCTGGAA: 0.251
CAAGCGGA: 0.377
CCCCTTCC: 0.412
GTAAGGAA: 0.254
GGGCAGGA: 0.406
AATATCCG: 0.455
ACAGGATA: 0.438
ATCCGATC: 0.285
AAGAGGAA: 0.367
GGGAAACA: 0.328
AGGCAGGA: 0.347
CTAGGAAG: 0.317
TGCGGAAA: 0.454

Block 4
Target: RING finger protein unkempt homolog, zinc fingers 1-6, GST-SBP tag (UNK, Homo sapiens, UniProt Q9C0B0, residues 30-357)
Technique: RNA Bind-n-Seq
Molecule type: RNA
Medium: in vitro
Concentration: not given
Setting: RNA with constant flanks, human and mouse sites, ends assumed
Relative to: input RNA pool
Direction: higher = stronger binding
Measurement: bound/input enrichment
Constant ends, left off below: GGGAGUUCUACAGUCCGACGAUC … CAACAGAGGAUUGAGCAUCA
Construct (chain): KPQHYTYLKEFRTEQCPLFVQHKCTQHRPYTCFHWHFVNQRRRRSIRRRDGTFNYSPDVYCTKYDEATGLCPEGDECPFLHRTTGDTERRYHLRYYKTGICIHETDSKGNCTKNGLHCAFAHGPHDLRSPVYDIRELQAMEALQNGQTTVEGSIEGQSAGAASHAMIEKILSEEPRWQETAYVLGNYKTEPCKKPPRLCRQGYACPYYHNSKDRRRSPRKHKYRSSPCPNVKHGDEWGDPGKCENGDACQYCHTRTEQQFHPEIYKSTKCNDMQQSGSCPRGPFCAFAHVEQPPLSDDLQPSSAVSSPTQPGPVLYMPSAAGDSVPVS
CAUUUGUGGUGUCCCGUCAAUCCCUGAAGGCAUAGAUUAUCUGAAACUACUUUUAAUCAGGAAGAUUUCAUAUCUUGAUACAGAUCAACUAUUCUGUUUGUUUUUCUGAAAUGAAAAGCA: 0.379 ratio
AAGAAUCUGAUUGAAAGCAUGCAAAUAAAUGGGUCAGUGUUGAAGAAUGGCUCCCUGACAAAUCAUUUCUCUUUUGAAAAAAAAAAGGCCAGAGUGGCUGUCUUAAUAUCUGGAACAGGA: 0.164 ratio
CAUAUUUUAGAGGUAAUCAUGUCUUCUAGAUUACUUGUGUGCAUUUGAUUGGGCUUCUUGUUUAGGGUCCCUUUUAAAAUUAAUUCAUUAGAUUGAAAAAUGUAUUCUAUAUUUCUGAUA: 6.88 ratio
GAUGGAUUUUACUUUUCAACAACAUAUGACUUGACUCAUACUUUGCAGCGACUAUCUAACACGAGUCCAGAAUUCCAAGAAAUGAGUCUCUUAGAAAGGGCAGAUCAGCGGUUUGUAUGG: 0.201 ratio
UAUUACGUAUUGUAGAAGGCCAUUGUUAACAAGAGUCUCCUGCUAUGAACCUGUUUGCAUUUUAGAAUCAGAGAAACUUUUAAUUUAUAACCUUUUAAGAAUCGAGGUCUUCAGCUCUGA: 2.68 ratio
AGAGCUGGCACACCGAUUCUGGGAAGCCCCGCGAAUGAUGGCUUUUGAAUUAAUGAGGCAGUGAAUGUUUUGUGUUUACUUCUAAGGGAAAUACUAACUUUCUUUCGCAUUAGUAUUAAU: 0.735 ratio
AGAUAGACAACUGUCCGCAGUUGCUUUUAAAAAAGGUCACUAUAAUAAGUACUAUAUAGUACAGUAUUAAUUUAUAGCAGGAAAUCGUAUCUUGUAAACUGUAUAUAAAACACUGUUUUA: 0.521 ratio
GCCAUUGACUAUGAGUCGUUCUAUGUUUACGCACAGCUGCCUGUCACCCCAGAUGUCCUCAUCAUCCCGUCAGAGCUGAGGUACUUCGUGAAGGAUGUCCUCGGCUGUGUCUGUGUGAAC: 0.112 ratio
AACAAACCUUGUGGUUAUCAGCAGAGCCUUCAGAGUUUCACCAUAACUCAGGCCUAGACAUUAUUCUAAAUGGCAACUGAUAUGUCUCAAGGUGAACUCAUCCAUCCUAAGGCACUCCCA: 0.0892 ratio
CCAACGGCCUGAGGAGAGCGGGGCACGGGGUCUCUUUAGCUUUUACAAGUUUUAGGAUUUUUUCAAGCAGGGAUCAAUCCCGUGGCCAUUUUUUGUGGUACUUUGGCCUCAAUUCUUCAC: 1.22 ratio
GGAGUCGGGAGGCCUGAGUGUUCCUUCCAGCAUGUCGGAGGGGGAGUCCCAGACAGUACUUAGCAGUGGCUCAGACCCAAAGGUAGAAUCCUCAUCUUCAGCUCCUGGCCUGACAUCAGU: 0.206 ratio
